Published values from different studies.
Lines come from different studies, so protocols differ. ± marks the error that the study gave. ≈ marks a conversion by molar mass, not a printed value.

For CCN(CC)CCSC(=S)N1CCN(C(=O)/C=C/c2coc3cc(F)ccc3c2=O)CC1, the EC50 was 253 ± 8.9 mg/L (≈ 529 µM) (tomato spotted wilt virus; virus inactivation, half-leaf method; Nicotiana glutinosa; tested 31.25 to 500 µg/mL).
For Cc1sc2ncn(CC(=O)N3CCCC3)c(=O)c2c1-c1cccc(Br)c1, “open probability increase” read 4.4 fold (NMDA receptor mouse; single-channel outside-out recording; cultured cortical neurons; 50 µM; baseline: vehicle).
The EC50 of CCN(CC)CCSC(=S)N1CCN(C(=O)/C=C/c2coc3ccc(OC)cc3c2=O)CC1 is reported as 162 ± 9.7 mg/L (≈ 332 µM) (tomato spotted wilt virus; virus inactivation, half-leaf method; Nicotiana glutinosa; tested 31.25 to 500 µg/mL).
Under mRNA level, COc1cc2c(OC3OCC(OC)C(OC)C3OC(=O)c3ccc(Br)cc3)c3c(c(-c4ccc5c(c4)OCO5)c2cc1OC)C(=O)OC3 (stereo not drawn) is recorded as “no effect” (FaDu; RT-qPCR, refers to: Twist; concentration not given, 36 h).
CN(C)CCCSC(=S)N1CCN(C(=O)/C=C/c2coc3ccccc3c2=O)CC1 has an inactivation effect of 77.3% (tomato spotted wilt virus; viral infection, half-leaf method; Nicotiana glutinosa; 500 µg/mL).
For Cn1c(=O)oc2ccc(-c3ccc(CC(C#N)NC(=O)C4CNCCCO4)c(F)c3)cc21 (stereo not drawn), “reduction in NE activity” read 64.9% (neutrophil elastase (human); inhibitor; human, whole blood; 20 mg once daily, 31 days after discontinuation, normalised to neutrophil count).
The inactivation effect of COc1ccc2occ(/C=C/C(=O)N3CCN(C(=S)SCCN(C)C)CC3)c(=O)c2c1 is reported as 63.7 ± 3.9% (tomato spotted wilt virus; viral infection, half-leaf method; Nicotiana glutinosa; 500 µg/mL).
For CC/C=C\C/C=C\C/C=C\C/C=C\C/C=C\C/C=C\CCC(=O)Nc1ccn(C2OC(CO)C(O)C2(F)F)c(=O)n1 (stereo not drawn), the TGI was 2.75 µM (NCI-H226; NCI60 screen).
The body weight of Cc1cc(O)c(C=O)c2c1C(=O)Oc1c(CO)c(O)c3c(c1O2)C(O)OC3=O (stereo not drawn) is reported as 172 ± 5.91 g (rat male, streptozotocin diabetic; 5 mg/kg, 9 weeks).
O=C(CCCN1C(=O)c2cccc3cccc(c23)C1=O)NO has an inhibition of 67.6 ± 10.4% (Cryptosporidium parvum; parasite growth; HCT-8; 5 µM, 48 h).
The protective effect of O=C(/C=C/c1coc2ccccc2c1=O)N1CCN(C(=S)SC2CC2)CC1 is reported as 54.9 ± 3.4% (tomato spotted wilt virus; viral infection, half-leaf method; Nicotiana glutinosa; 500 µg/mL).
CC/C=C\C/C=C\C/C=C\C/C=C\C/C=C\CCCCOC(CC)C(=O)O (stereo not drawn) — result for “hepatic free fatty acids”: “decreased” (APOE*3Leiden.CETP mice, high-fat/cholesterol diet; dose not given, 20 weeks; baseline: control).
Oc1cc(C(F)(F)F)ccc1-c1nc2c(C(F)(F)F)cc(C(F)(F)F)cc2[nH]1 gave a colistin MIC of 2 mg/L (Klebsiella pneumoniae; colistin potentiator; KP H2, colistin-resistant; 5 µM).
CCN(CC)CCCSC(=S)N1CCN(C(=O)/C=C/c2coc3ccc(OC)cc3c2=O)CC1 gave a curative effect of 59.6 ± 3.8% (tomato spotted wilt virus; viral infection, half-leaf method; Nicotiana glutinosa; 500 µg/mL).
CC(C)c1cnc(-c2cc(Cl)ccc2F)cc1Nc1ccncc1C(=O)NC(CO)CO has an inhibition of 64% (refers to: pSMAD2; MC-38 tumour-bearing mouse, tumour; 100 mg/kg, 0 to 8 h average; baseline: vehicle).
For COc1ccc(C2CC(c3ccc(C)cc3)=Nc3ccccc3S2)cc1 (stereo not drawn), the AST (SGOT) was 24 ± 2.11 IU/L (Wistar rat, STZ-induced diabetes, serum; 10 mg/kg, 28 days).
With CN(C)CCCSC(=S)N1CCN(C(=O)/C=C/c2coc3cc(F)ccc3c2=O)CC1 the inactivation effect was 67.3 ± 7.4% (tomato spotted wilt virus; viral infection, half-leaf method; Nicotiana glutinosa; 500 µg/mL).
The inhibitory concentration of CNC(=O)C1CCN(c2cc(C)c(F)cc2NC(=O)c2ccc(-c3cc(O)ccc3C)c(C)c2)CC1 is reported as 1 µM (human EPHA2/EPHA4; phosphorylation, inhibitor, Western blot; A673; together with: EFNA5 0.5 µg/mL; lowest concentration).
Cc1cc([C@H](C(=O)N2C[C@H](O)C[C@H]2C(=O)N[C@@H](CC(=O)N2CCC(N3CCC(C#Cc4ccc(C(=O)N[C@H]5C(C)(C)[C@H](Oc6ccc(C#N)c(Cl)c6)C5(C)C)cc4)CC3)CC2)c2ccc(-c3scnc3C)cc2)C(C)C)on1 has an apoptosis-inducing concentration of 0.5 µM (MDA-MB-453; flow cytometry; 72 h).
COc1ccc2occ(/C=C/C(=O)N3CCN(C(=S)SCCCN(C)C)CC3)c(=O)c2c1 has an inactivation effect of 74.2% (tomato spotted wilt virus; viral infection, half-leaf method; Nicotiana glutinosa; 500 µg/mL).
COc1ccc(C2CC(c3ccc(C)cc3)=Nc3ccccc3S2)cc1OC (stereo not drawn) gave an AST (SGOT) of 20.4 ± 2.29 IU/L (Wistar rat, STZ-induced diabetes, serum; 20 mg/kg, 28 days).
CC[C@H](C)[C@H](NC(=O)[C@H](Cc1ccccc1)NC(=O)[C@@H](NC(=O)[C@@H](NC(=O)[C@H](CC(C)C)NC(=O)[C@H](CCCCN)NC(=O)[C@@H](N)CCCCN)[C@@H](C)CC)[C@@H](C)O)C(=O)N[C@@H](CC(C)C)C(=O)N[C@@H](CCCCN)C(=O)N[C@@H](CCCCN)C(=O)N[C@H](C(=O)N[C@@H](CCCNC(=N)N)C(=O)N[C@@H](CCC(=O)O)C(=O)N[C@@H](CCCCN)C(=O)N[C@@H](CCCCN)C(=O)N[C@@H](CCCCN)C(=O)N[C@@H](CCC(=O)O)C(=O)N[C@@H](CS)C(=O)N[C@@H](CC(C)C)C(=O)N[C@H](C(=O)O)C(C)C)[C@@H](C)O — result for “rate constant kIO”: 8 s⁻¹ (voltage-gated sodium channel; resurgent sodium current, kinetic model fit; mouse CA3 neurons; 200 µM, membrane potential -30 mV).
O=Cc1c(O)ccc2ccccc12 — result for “log2 fold change”: -3.2 (HUVEC; RNA sequencing, refers to: CSGALNACT1; 75 µM, 24 h; baseline: DMSO).
With CC(=O)OC[C@H]1O[C@@H](Sc2sc(C(=O)c3ccc(C)cc3)c(N)c2-c2nc3ccccc3s2)[C@H](OC(C)=O)[C@@H](OC(C)=O)[C@H]1OC(C)=O the growth was 55.7% (SNB-75; SRB; 10 µM, 48 h; baseline: untreated).

For quick reference, copied from above:
O=C(CCCN1C(=O)c2cccc3cccc(c23)C1=O)NO has an inhibition of 67.6 ± 10.4% (Cryptosporidium parvum; parasite growth; HCT-8; 5 µM, 48 h).
The protective effect of O=C(/C=C/c1coc2ccccc2c1=O)N1CCN(C(=S)SC2CC2)CC1 is reported as 54.9 ± 3.4% (tomato spotted wilt virus; viral infection, half-leaf method; Nicotiana glutinosa; 500 µg/mL).
CC/C=C\C/C=C\C/C=C\C/C=C\C/C=C\CCCCOC(CC)C(=O)O (stereo not drawn) — result for “hepatic free fatty acids”: “decreased” (APOE*3Leiden.CETP mice, high-fat/cholesterol diet; dose not given, 20 weeks; baseline: control).
Oc1cc(C(F)(F)F)ccc1-c1nc2c(C(F)(F)F)cc(C(F)(F)F)cc2[nH]1 gave a colistin MIC of 2 mg/L (Klebsiella pneumoniae; colistin potentiator; KP H2, colistin-resistant; 5 µM).
